Measurements collected from several papers.
Protocols differ between the studies behind these lines.

For `CNC(=O)c1ccc(-c2cnc3ncc(Cc4ccc5ncccc5c4)n3n2)cc1F`, “patients with adverse event” read 0% (item: Asthenia; hepatocellular carcinoma patients; oral, 600 mg twice daily, expansion cohort, grade 3-4).
`O=C(Nc1nc2cccc(-c3ccc(CN4CCS(=O)(=O)CC4)cc3)n2n1)C1CC1`: “patients with Asthenia” 8.3% (rheumatoid arthritis patients; oral, 100 mg twice daily, 4 weeks, TEAE regardless of relatedness).
With `CCOc1c([C@H](C)n2nc(C)c3c(N)ncnc32)cc(Cl)c(F)c1[C@@H]1CNC(=O)C1` the patients was 100% (item: QTcF change ≤30 ms; previously treated B-cell malignancy; oral, 15 mg once daily, baseline QTcF ≤450 ms; relative to: baseline).
`Cc1cc(NC2CCN(C(=O)OC3CCN(C(=O)/C=C/CN(C)C)C3)CC2)n2ncc(C(C)C)c2n1` (centres unmarked): “patients with adverse event” 6% (Phase I dose escalation CTCAE v4.0, item: small intestinal obstruction; patients with advanced solid tumours; dose not given, Total dosing any grade).
Under “patients discontinuing for AE”, `C[C@@H](Nc1cc(F)cc(F)c1)c1cc(C(=O)N(C)C)cc2c(=O)cc(N3CCOCC3)oc12` is recorded as 0% (CTCAE v4, item: SIRS; patients with advanced solid tumours; oral, dose not given, phase I dose expansion).
`COc1cc(Nc2ncc3c(n2)-c2ccc(Cl)cc2C(c2c(F)cccc2OC)=NC3)ccc1C(=O)O` — result for “patients with adverse event”: 21% (item: Nausea, all grades; cancer patients, phase 1/2; oral, dose not given, together with: pembrolizumab).
For `CNC(=O)c1cc(Oc2ccc(NC(=O)Nc3cc(C(C)(C)C)nn3-c3ccc4ncccc4c3)c(F)c2)ccn1`, “patients with grade 3 musculoskeletal disorders” read 27% (patients; oral, dose not given, cycles 1 and 2, Medium Cmax subgroup).
For `Cc1cc(-c2nnc(N)nc2-c2ccc(F)cc2)cc(Cl)n1`, “patients with immune-mediated AE” read 0% (item: type 1 diabetes mellitus; IO-naive mCRPC patients, male; oral, dose not given, treatment-related, grade 2).

Some of these lines once more:
`O=C(Nc1nc2cccc(-c3ccc(CN4CCS(=O)(=O)CC4)cc3)n2n1)C1CC1`: “patients with Asthenia” 8.3% (rheumatoid arthritis patients; oral, 100 mg twice daily, 4 weeks, TEAE regardless of relatedness).
